# Results pooled from the literature.
# Amino acid sequences for entries named in this document (tags omitted). A change or cut given only in a name is not applied to a line headed by its entry.
# UniProt Q02294, whole entry, looked up: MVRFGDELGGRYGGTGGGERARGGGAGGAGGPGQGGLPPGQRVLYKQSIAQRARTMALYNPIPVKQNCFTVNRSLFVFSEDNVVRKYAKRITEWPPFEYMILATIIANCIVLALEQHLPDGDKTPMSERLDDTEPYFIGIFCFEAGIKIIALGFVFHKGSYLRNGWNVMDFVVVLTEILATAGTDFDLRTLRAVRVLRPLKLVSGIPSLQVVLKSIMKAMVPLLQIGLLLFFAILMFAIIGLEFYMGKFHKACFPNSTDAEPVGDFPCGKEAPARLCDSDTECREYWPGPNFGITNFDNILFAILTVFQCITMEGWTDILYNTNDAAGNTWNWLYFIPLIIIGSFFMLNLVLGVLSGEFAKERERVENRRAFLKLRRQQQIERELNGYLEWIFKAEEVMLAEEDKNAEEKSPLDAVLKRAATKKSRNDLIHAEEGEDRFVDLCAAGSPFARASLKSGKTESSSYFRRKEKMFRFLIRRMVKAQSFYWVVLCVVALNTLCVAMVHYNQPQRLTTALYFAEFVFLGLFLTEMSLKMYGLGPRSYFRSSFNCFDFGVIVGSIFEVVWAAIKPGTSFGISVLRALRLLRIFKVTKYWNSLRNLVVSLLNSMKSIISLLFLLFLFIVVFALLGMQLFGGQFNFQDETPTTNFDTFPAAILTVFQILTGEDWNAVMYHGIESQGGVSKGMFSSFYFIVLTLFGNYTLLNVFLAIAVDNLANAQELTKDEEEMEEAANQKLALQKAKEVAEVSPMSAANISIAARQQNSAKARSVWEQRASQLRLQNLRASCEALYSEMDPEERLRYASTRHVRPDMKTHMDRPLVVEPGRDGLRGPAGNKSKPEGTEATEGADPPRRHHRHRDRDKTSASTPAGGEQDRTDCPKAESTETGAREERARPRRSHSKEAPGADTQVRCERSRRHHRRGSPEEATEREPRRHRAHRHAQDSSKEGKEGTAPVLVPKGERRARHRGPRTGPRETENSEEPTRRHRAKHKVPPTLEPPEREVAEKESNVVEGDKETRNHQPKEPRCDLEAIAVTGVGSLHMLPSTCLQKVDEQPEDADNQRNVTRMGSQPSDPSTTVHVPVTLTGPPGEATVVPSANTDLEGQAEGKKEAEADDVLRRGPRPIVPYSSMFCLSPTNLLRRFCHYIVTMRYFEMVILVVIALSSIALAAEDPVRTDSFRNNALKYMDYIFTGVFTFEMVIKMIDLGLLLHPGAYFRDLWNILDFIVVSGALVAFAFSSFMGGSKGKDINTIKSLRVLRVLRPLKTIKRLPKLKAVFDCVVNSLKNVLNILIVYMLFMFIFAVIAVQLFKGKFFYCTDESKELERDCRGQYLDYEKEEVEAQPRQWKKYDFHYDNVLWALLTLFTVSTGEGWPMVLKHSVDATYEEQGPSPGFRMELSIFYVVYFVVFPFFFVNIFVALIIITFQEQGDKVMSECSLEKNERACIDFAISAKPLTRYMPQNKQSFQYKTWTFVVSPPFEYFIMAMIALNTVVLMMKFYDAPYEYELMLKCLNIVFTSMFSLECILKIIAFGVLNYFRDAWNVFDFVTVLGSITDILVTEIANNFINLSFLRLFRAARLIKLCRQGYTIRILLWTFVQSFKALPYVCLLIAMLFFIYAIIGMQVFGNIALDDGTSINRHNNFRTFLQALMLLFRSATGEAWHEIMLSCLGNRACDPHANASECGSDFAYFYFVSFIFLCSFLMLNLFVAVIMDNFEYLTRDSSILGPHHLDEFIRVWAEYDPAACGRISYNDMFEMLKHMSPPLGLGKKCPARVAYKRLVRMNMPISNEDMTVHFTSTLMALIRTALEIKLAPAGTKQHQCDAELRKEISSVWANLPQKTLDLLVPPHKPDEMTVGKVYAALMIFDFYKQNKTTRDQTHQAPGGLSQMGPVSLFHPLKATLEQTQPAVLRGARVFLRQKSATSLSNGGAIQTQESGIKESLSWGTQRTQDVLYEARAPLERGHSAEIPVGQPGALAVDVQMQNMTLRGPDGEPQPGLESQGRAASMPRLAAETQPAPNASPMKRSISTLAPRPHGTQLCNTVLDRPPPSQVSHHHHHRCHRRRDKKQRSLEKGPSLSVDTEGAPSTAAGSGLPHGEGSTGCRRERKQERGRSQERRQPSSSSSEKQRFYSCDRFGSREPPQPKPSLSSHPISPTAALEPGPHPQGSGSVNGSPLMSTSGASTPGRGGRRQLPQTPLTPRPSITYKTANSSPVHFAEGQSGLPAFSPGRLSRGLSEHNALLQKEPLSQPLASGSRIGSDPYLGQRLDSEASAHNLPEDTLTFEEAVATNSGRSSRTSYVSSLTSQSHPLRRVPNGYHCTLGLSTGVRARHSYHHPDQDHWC
# UniProt O42275, whole entry, looked up: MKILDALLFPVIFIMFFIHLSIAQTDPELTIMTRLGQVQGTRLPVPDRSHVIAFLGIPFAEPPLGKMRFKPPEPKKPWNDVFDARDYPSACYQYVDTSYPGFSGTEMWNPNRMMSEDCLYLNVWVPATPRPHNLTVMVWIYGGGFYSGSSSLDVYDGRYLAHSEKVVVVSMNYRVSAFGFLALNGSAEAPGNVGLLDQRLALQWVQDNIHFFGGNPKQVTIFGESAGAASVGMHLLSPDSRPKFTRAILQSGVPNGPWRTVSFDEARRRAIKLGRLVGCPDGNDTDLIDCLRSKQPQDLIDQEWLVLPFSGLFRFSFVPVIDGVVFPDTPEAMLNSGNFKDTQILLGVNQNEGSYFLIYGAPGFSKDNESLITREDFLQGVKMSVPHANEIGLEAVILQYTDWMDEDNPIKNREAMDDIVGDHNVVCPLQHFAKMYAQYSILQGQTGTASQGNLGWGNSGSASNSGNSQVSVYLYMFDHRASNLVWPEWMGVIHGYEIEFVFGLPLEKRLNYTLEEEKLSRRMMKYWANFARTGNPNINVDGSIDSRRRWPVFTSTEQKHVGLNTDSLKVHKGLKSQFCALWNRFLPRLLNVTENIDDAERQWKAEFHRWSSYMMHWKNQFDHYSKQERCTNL
# UniProt P04775, whole entry: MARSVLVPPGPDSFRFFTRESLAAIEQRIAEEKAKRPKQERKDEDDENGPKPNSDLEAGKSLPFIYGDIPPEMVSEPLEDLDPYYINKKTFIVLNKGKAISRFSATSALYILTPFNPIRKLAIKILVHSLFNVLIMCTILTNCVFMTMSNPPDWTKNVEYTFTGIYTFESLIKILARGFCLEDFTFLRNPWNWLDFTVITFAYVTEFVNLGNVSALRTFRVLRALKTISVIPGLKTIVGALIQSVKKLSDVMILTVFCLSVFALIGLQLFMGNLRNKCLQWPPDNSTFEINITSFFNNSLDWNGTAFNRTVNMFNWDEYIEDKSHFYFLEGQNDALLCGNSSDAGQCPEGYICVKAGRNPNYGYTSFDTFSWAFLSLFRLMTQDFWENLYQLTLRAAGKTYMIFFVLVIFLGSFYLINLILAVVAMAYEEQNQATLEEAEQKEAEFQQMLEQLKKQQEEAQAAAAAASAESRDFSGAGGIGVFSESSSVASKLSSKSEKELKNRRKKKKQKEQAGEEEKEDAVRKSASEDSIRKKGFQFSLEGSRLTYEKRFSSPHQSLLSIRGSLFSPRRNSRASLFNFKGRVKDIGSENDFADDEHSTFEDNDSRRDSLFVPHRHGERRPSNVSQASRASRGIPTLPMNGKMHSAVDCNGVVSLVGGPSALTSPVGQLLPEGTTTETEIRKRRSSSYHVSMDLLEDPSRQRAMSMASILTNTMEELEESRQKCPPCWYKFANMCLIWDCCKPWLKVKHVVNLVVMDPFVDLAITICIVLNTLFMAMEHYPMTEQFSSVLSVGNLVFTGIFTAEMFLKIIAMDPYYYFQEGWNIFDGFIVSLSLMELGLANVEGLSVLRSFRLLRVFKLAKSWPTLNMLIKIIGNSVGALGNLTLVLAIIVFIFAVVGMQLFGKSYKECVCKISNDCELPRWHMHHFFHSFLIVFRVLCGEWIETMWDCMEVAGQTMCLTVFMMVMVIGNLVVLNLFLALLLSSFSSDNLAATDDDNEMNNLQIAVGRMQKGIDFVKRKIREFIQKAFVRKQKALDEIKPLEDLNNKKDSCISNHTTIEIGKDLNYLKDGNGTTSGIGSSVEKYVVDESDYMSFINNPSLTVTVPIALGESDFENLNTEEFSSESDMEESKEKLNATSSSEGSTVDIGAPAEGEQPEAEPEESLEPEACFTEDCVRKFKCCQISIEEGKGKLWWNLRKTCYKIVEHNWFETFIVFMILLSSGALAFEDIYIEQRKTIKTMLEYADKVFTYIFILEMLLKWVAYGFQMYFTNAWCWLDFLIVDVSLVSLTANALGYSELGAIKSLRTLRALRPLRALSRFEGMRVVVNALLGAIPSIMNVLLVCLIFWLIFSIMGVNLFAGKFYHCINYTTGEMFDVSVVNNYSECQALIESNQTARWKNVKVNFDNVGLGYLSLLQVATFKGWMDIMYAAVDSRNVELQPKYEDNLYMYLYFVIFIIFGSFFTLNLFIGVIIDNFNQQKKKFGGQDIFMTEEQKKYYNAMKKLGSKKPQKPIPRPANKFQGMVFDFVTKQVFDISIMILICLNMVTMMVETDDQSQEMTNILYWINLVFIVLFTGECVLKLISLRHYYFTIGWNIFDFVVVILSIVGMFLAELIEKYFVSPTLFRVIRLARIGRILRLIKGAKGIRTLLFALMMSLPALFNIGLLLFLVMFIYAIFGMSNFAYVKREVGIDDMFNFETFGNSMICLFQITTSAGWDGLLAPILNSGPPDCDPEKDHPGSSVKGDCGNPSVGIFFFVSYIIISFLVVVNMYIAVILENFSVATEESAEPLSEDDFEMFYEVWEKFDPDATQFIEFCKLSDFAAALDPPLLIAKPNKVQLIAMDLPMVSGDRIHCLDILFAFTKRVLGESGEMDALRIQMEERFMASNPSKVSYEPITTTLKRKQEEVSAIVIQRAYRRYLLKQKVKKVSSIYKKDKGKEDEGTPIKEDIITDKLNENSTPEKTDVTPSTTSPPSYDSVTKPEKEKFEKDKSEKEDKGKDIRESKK
# Protocols differ between the studies behind these lines. ± marks the error that the study gave.
# Cacna1b with α2δ, β3 subunits: Voltage-dependent N-type calcium channel subunit alpha-1B, with α2δ, β3 subunits (Cacna1b, Rattus norvegicus, UniProt Q02294)
# Spike glycoprotein Beta variant: Spike glycoprotein, Beta variant (Severe acute respiratory syndrome coronavirus 2, UniProt P0DTC2)
Structure (SMILES),target,test,test system,conditions,IC50 [µM]
COc1ccc(CN2CCN(C(c3ccc(F)cc3)c3ccc(F)cc3)CC2)c(OC)c1OC,"Replicase polyprotein 1ab, nsp14 (rep, Severe acute respiratory syndrome-related coronavirus, UniProt P0C6X7)","enzyme activity, inhibitor",,,13.5 ± 2
CC(=O)c1nc2ccccc2n1Cc1ccc(Cl)cc1,"Enoyl-[acyl-carrier-protein] reductase [NADH] (Francisella tularensis subsp. tularensis, UniProt Q5NGQ3)",,,,> 100
CC[C@H](C)[C@H](NC(=O)[C@H](C)NC(=O)[C@H](CCC(=O)O)NC(=O)[C@H](CCC(=O)O)NC(=O)[C@H](CC(C)C)NC(=O)[C@H](CCCCN)NC(=O)[C@H](CCCCN)NC(=O)[C@H](CCSC)NC(=O)[C@H](CCC(=O)O)NC(=O)[C@H](Cc1ccc(O)cc1)NC(=O)[C@H](CCC(=O)O)NC(=O)[C@H](CC(C)C)NC(=O)[C@H](CC(=O)O)NC(=O)[C@H](CC(C)C)NC(=O)[C@H](Cc1ccccc1)NC(=O)[C@H](Cc1ccc(O)cc1)NC(=O)[C@@H](NC(=O)[C@H](CC(N)=O)NC(=O)[C@@H](NC(=O)[C@H](CCC(N)=O)NC(=O)[C@H](CC(=O)O)NC(=O)[C@H](CC(C)C)NC(=O)[C@@H](N)CO)[C@@H](C)CC)C(C)C)C(=O)N[C@@H](CCCCN)C(=O)N[C@@H](CCCCN)C(=O)N[C@@H](CC(C)C)C(=O)N[C@@H](CCC(=O)O)C(=O)N[C@@H](CCC(=O)O)C(=O)N[C@@H](C)C(=O)N[C@@H](Cc1ccc(O)cc1)C(=O)N[C@H](C(=O)N[C@@H](CC(=O)O)C(=O)N[C@@H](CC(C)C)C(=O)N[C@@H](CCCCN)C(=O)N[C@@H](CCC(=O)O)C(=O)N[C@@H](CC(C)C)C(=O)O)[C@@H](C)CC,"Spike glycoprotein (Severe acute respiratory syndrome coronavirus, UniProt P59594)","cell-cell fusion, inhibitor, luciferase fusion","293T donor, Huh-7 target","16 h, 37 °C, dual mutations",0.00706
O=C(O)COc1c(SSc2cnn(-c3ccccc3)c(=O)c2OCC(=O)O)cnn(-c2ccccc2)c1=O,"Sortase A (Bacillus anthracis str. H9401, UniProt P0DPQ5)",inhibitor,Bacillus anthracis,,0.49 ± 0.19
Cc1cc(S(=O)(=O)NC(C(=O)NO)C2CCOCC2)ccc1F (racemic),"Lethal factor (Bacillus anthracis, UniProt P15917)",,,,0.8
O=C(C1CCN(Cc2ccccc2)CC1)N1CCc2ccccc21,"ache (Electrophorus electricus, UniProt O42275)","enzyme activity, inhibitor, Ellman",,"10 min preincubation, pH 8, 23 °C",417 ± 33
CC[C@H](C)[C@H](NC(=O)[C@H](C)NC(=O)[C@H](CCC(=O)O)NC(=O)[C@H](CCC(=O)O)NC(=O)[C@H](CC(C)C)NC(=O)[C@H](CCCCN)NC(=O)[C@H](CCCCN)NC(=O)[C@H](CCSC)NC(=O)[C@H](CCC(=O)O)NC(=O)[C@H](Cc1ccc(O)cc1)NC(=O)[C@H](CCC(=O)O)NC(=O)[C@H](CC(C)C)NC(=O)[C@H](CC(=O)O)NC(=O)[C@H](CC(C)C)NC(=O)[C@H](Cc1ccccc1)NC(=O)[C@@H](NC(=O)[C@@H](NC(=O)[C@H](CC(N)=O)NC(=O)[C@@H](NC(=O)[C@H](CCC(N)=O)NC(=O)[C@H](CC(=O)O)NC(=O)[C@H](CC(C)C)NC(=O)[C@@H](N)CO)[C@@H](C)CC)C(C)C)[C@@H](C)O)C(=O)N[C@@H](CCCCN)C(=O)N[C@@H](CCCCN)C(=O)N[C@@H](CC(C)C)C(=O)N[C@@H](CCC(=O)O)C(=O)N[C@@H](CCC(=O)O)C(=O)N[C@@H](CO)C(=O)N[C@@H](Cc1ccc(O)cc1)C(=O)N[C@H](C(=O)N[C@@H](CC(=O)O)C(=O)N[C@@H](CC(C)C)C(=O)N[C@@H](CCCCN)C(=O)N[C@@H](CCC(=O)O)C(=O)N[C@@H](CC(C)C)C(=O)O)[C@@H](C)CC,"Spike glycoprotein (Severe acute respiratory syndrome coronavirus, UniProt P59594)","cell-cell fusion, inhibitor, luciferase fusion","293T donor, Huh-7 target","16 h, 37 °C",0.0856
CN(C)c1ccc2c(n1)sc1c(N3CCNCC3)ncnc12,"Beta-glucuronidase (bglR, Clostridium perfringens, UniProt Q8XP19)","enzyme activity, inhibitor",,,0.014 ± 0.003
CC[C@H](C)[C@H](NC(=O)[C@H](C)NC(=O)[C@H](CCC(=O)O)NC(=O)[C@H](CCC(=O)O)NC(=O)[C@H](CC(C)C)NC(=O)[C@H](CCCCN)NC(=O)[C@H](CCCCN)NC(=O)[C@H](CCSC)NC(=O)[C@H](CCC(=O)O)NC(=O)[C@H](Cc1ccc(O)cc1)NC(=O)[C@H](CCC(=O)O)NC(=O)[C@H](CC(C)C)NC(=O)[C@H](CC(=O)O)NC(=O)[C@H](CC(C)C)NC(=O)[C@H](Cc1ccccc1)NC(=O)[C@@H](NC(=O)[C@@H](NC(=O)[C@H](CC(N)=O)NC(=O)[C@@H](NC(=O)[C@H](CCC(N)=O)NC(=O)[C@H](CC(=O)O)NC(=O)[C@H](CC(C)C)NC(=O)[C@H](CO)NC(=O)[C@H](CC(C)C)NC(=O)[C@H](CC(=O)O)NC(=O)[C@@H]1CCCN1C(=O)[C@H](C)N)[C@@H](C)CC)C(C)C)[C@@H](C)O)C(=O)N[C@@H](CCCCN)C(=O)N[C@@H](CCCCN)C(=O)N[C@@H](CC(C)C)C(=O)N[C@@H](CCC(=O)O)C(=O)N[C@@H](CCC(=O)O)C(=O)N[C@@H](CO)C(=O)N[C@@H](Cc1ccc(O)cc1)C(=O)N[C@H](C(=O)N[C@@H](CC(=O)O)C(=O)N[C@@H](CC(C)C)C(=O)N[C@@H](CCCCN)C(=O)N[C@@H](CCC(=O)O)C(=O)N[C@@H](CC(C)C)C(=O)O)[C@@H](C)CC,"Spike glycoprotein (MERS-CoV, UniProt K9N5Q8)","cell-cell fusion, inhibitor, luciferase fusion","293T donor, Huh-7 target","16 h, 37 °C",1.46
C[C@@H](O)[C@@H]1NC(=O)[C@@H]2CSSC[C@H](N)C(=O)N[C@@H](CCCCN)C(=O)N[C@@H](CCCNC(=N)N)C(=O)N[C@@H](CCCCN)C(=O)NCC(=O)N[C@@H](CO)C(=O)N[C@@H](CO)C(=O)N[C@H]3CSSC[C@H](NC(=O)[C@H](CO)NC(=O)CNC1=O)C(=O)N[C@@H](CCCNC(=N)N)C(=O)N[C@@H](CC(N)=O)C(=O)NCC(=O)N[C@@H](CCCCN)C(=O)N[C@H](C(N)=O)CSSC[C@H](NC(=O)[C@H](CC(=O)O)NC(=O)[C@H](Cc1ccc(O)cc1)NC(=O)[C@H](CO)NC(=O)[C@H]([C@@H](C)O)NC(=O)[C@H](CCCNC(=N)N)NC(=O)[C@H](CO)NC3=O)C(=O)N2,"Cacna1b with α2δ, β3 subunits","Ba2+ current, inhibitor, whole-cell patch clamp",HEK293 expressing α2δ and β3,"22 °C, together with: Ba2+ 20 mM",0.136
Cc1n[nH]c(C)c1S(=O)(=O)Nc1ccc2c[nH]nc2c1,"Inosine-5'-monophosphate dehydrogenase (Mycobacterium tuberculosis, UniProt P9WKI7, D250G/del126-249)",enzyme activity,,,0.38 ± 0.02
O=C(Nc1ccc(F)cc1)C1C(=O)N(O)C(=O)c2cc([N+](=O)[O-])ccc21 (centres unmarked),"Nucleoprotein, exonuclease domain (N, Lymphocytic choriomeningitis virus, UniProt P09992)","exonuclease activity, inhibitor",,,13.3 ± 1
"Cc1ccc(NC2CNC2)cc1C(=O)N[C@H](C)c1cccc(-c2ccc(CN[C@H]3CC[C@@H](O)C3)s2)c1 (single isomer, unassigned)","Replicase polyprotein 1ab, papain-like protease (rep, Severe acute respiratory syndrome-related coronavirus, UniProt P0C6X7)",enzyme activity,,,0.128 ± 0.034
CC[C@H](C)[C@H](NC(=O)[C@H](C)NC(=O)[C@H](CCC(=O)O)NC(=O)[C@H](CCC(=O)O)NC(=O)[C@H](CC(C)C)NC(=O)[C@H](CCCCN)NC(=O)[C@H](CCCCN)NC(=O)[C@H](CCSC)NC(=O)[C@H](CCC(=O)O)NC(=O)[C@H](Cc1ccc(O)cc1)NC(=O)[C@H](CCC(=O)O)NC(=O)[C@H](CC(C)C)NC(=O)[C@H](CC(=O)O)NC(=O)[C@H](CC(C)C)NC(=O)[C@H](Cc1ccccc1)NC(=O)[C@H](Cc1ccccc1)NC(=O)[C@@H](NC(=O)[C@H](CC(N)=O)NC(=O)[C@@H](NC(=O)[C@H](CCC(N)=O)NC(=O)[C@H](CC(=O)O)NC(=O)[C@H](CC(C)C)NC(=O)[C@@H](N)CO)[C@@H](C)CC)C(C)C)C(=O)N[C@@H](CCCCN)C(=O)N[C@@H](CCCCN)C(=O)N[C@@H](CC(C)C)C(=O)N[C@@H](CCC(=O)O)C(=O)N[C@@H](CCC(=O)O)C(=O)N[C@@H](C)C(=O)N[C@@H](Cc1ccc(O)cc1)C(=O)N[C@H](C(=O)N[C@@H](CC(=O)O)C(=O)N[C@@H](CC(C)C)C(=O)N[C@@H](CCCCN)C(=O)N[C@@H](CCC(=O)O)C(=O)N[C@@H](CC(C)C)C(=O)O)[C@@H](C)CC,Spike glycoprotein Beta variant,"cell-cell fusion, inhibitor, luciferase fusion","293T donor, Huh-7 target","16 h, 37 °C, dual mutations",0.146
CC(=O)N[C@@H](CCCCN)C(=O)N[C@@H](Cc1c[nH]c2ccccc12)C(=O)N[C@@H](CCCCN)C(=O)N[C@@H](CCCNC(=N)N)C(=O)N[C@@H](CC(=O)O)C(=O)N[C@@H](Cc1c[nH]cn1)C(=O)N[C@@H](CC(=O)O)C(=O)N[C@@H](CCCNC(=N)N)C(N)=O,"Scn2a (Rattus norvegicus, UniProt P04775)","ion current, inhibitor, Hill equation fit",,rat channel,144 ± 1.1
CC[C@H](C)[C@H](NC(=O)[C@H](C)NC(=O)[C@H](CCC(=O)O)NC(=O)[C@H](CCC(=O)O)NC(=O)[C@H](CC(C)C)NC(=O)[C@H](CCCCN)NC(=O)[C@H](CCCCN)NC(=O)[C@H](CCSC)NC(=O)[C@H](CCC(=O)O)NC(=O)[C@H](Cc1ccc(O)cc1)NC(=O)[C@H](CCC(=O)O)NC(=O)[C@H](CC(C)C)NC(=O)[C@H](CC(=O)O)NC(=O)[C@H](CC(C)C)NC(=O)[C@H](Cc1ccccc1)NC(=O)[C@@H](NC(=O)[C@@H](NC(=O)[C@H](CC(N)=O)NC(=O)[C@@H](NC(=O)[C@H](CCC(N)=O)NC(=O)[C@H](CC(=O)O)NC(=O)[C@H](CC(C)C)NC(=O)[C@@H](N)CO)[C@@H](C)CC)C(C)C)[C@@H](C)O)C(=O)N[C@@H](CCCCN)C(=O)N[C@@H](CCCCN)C(=O)N[C@@H](CC(C)C)C(=O)N[C@@H](CCC(=O)O)C(=O)N[C@@H](CCC(=O)O)C(=O)N[C@H](C(=O)N[C@@H](Cc1ccc(O)cc1)C(=O)N[C@H](C(=O)N[C@@H](CC(=O)O)C(=O)N[C@@H](CC(C)C)C(=O)N[C@@H](CCCCN)C(=O)N[C@@H](CCC(=O)O)C(=O)N[C@@H](CC(C)C)C(=O)O)[C@@H](C)CC)[C@@H](C)O,Spike glycoprotein Beta variant,"cell-cell fusion, inhibitor, luciferase fusion","293T donor, Huh-7 target","16 h, 37 °C",0.0584
C[C@@H]1NC(=O)[C@H](CCCNC(=N)N)NC(=O)[C@@H]2CSSC[C@@H]3NC(=O)[C@H](CO)NC(=O)[C@H](CO)NC(=O)CNC(=O)[C@H](CCCCN)NC(=O)[C@H](CCCNC(=N)N)NC(=O)[C@H](CCCCN)NC(=O)[C@@H](N)CSSC[C@H](NC(=O)[C@H](CSSC[C@@H](C(N)=O)NC(=O)[C@H](CCCCN)NC(=O)CNC1=O)NC(=O)[C@H](CC(=O)O)NC(=O)[C@H](Cc1ccc(O)cc1)NC(=O)[C@H](CO)NC(=O)[C@H]([C@@H](C)O)NC(=O)[C@H](CCCNC(=N)N)NC(=O)[C@H](CCCNC(=N)N)NC3=O)C(=O)N[C@@H]([C@@H](C)O)C(=O)NCC(=O)N[C@@H](CO)C(=O)N2,"Cacna1b with α2δ, β3 subunits","Ba2+ current, inhibitor, whole-cell patch clamp",HEK293 expressing α2δ and β3,"22 °C, together with: Ba2+ 20 mM",0.087
